Assay results collected from several papers.
Values joined by “and” are separate records of one study, mostly repeats; a detail may differ. Numbers after ± are the reported error.
BCHE: Cholinesterase (BCHE, Homo sapiens, UniProt P06276)
UniProt P06276, sequence (whole entry, looked up): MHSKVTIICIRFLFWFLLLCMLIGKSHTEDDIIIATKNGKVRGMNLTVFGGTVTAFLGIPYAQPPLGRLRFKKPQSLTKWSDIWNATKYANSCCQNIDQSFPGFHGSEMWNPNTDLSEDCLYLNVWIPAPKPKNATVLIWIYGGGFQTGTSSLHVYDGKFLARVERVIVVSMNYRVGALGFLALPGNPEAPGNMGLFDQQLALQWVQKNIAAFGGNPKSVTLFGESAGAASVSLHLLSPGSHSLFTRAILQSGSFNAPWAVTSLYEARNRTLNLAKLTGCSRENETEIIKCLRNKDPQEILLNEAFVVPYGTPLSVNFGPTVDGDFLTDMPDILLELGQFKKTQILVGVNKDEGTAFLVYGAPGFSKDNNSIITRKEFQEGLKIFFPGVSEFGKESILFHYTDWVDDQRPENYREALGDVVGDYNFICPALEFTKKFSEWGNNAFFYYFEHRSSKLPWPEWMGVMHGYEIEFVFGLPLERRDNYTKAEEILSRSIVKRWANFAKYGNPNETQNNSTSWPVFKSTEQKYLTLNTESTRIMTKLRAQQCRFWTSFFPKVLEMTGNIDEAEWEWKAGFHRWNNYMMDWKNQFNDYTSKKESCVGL

Compound | target or system | test | system | conditions | scale | quantity | result
Cc1nonc1Cn1nnc2c(N3CC[C@H](O)C3)nc(C(C)(C)C)nc21 |  |  | C57BL/6 mice, plasma | intravenous, dose not given |  | dose-normalised AUC(0-inf) | 558 kg·ng·h/mL/mg
COc1cccc(Oc2ccccc2NC(=O)CNC(=O)c2cccc3ccccc23)c1 |  |  | esterase-deficient SCID mice, male | oral, 15 mg/kg/day, 14 days, toxicity study |  | serum calcium | 9.3 mg/dL and 10.5 mg/dL
COc1cc2c(cc1OC)CN(CCc1ccc(NC(=O)c3cccc4c(=O)c5cccc(OC)c5[nH]c34)cc1)CC2 |  |  | CD-1 mouse, male, lung | intraperitoneal, 10 mg/kg |  | Tmax | 1 h
CN1CCN(c2ccc(Nc3nccc(-c4cccc(C#N)c4)n3)cc2C(F)(F)F)CC1 |  |  | zebrafish embryos | 50 µM, 5 d |  | toxicity | 0%
O=C1Nc2cc3[nH]nc(-c4ccncc4)c3cc2CN1Cc1ccccc1 |  | refers to: subretinal fluid | patients with advanced solid tumours | intravenous, dose not given |  | patients with TEAE | 22%
COc1ccc(-c2c(-c3ccc(C#N)c(F)c3)nc(N3CCC(N)CC3)n(C)c2=O)cc1F |  | refers to: Dyspnea | human patients | oral, dose not given, dose escalation, NG |  | serious adverse event incidence | 2%
N=c1c2c(-c3ccccc3)c(-c3ccccc3)n(Cc3ccccc3)c2ncn1[C@H]1CC[C@H](O)CC1 |  |  | Gottingen minipig, female, plasma |  |  | AUC(0-t)/AUC(0-inf) ratio | < 60%
CN1CC[C@@H](c2c(O)cc(O)c3c(=O)cc(-c4ccc(C(F)(F)F)cc4Cl)oc23)[C@@H]1CO |  | refers to: Thrombocytopenia | relapsed B-cell malignancies | oral, 150 mg, grade 3-4, intermittent dosing |  | patients with adverse event | 0%
Clc1cc(Cl)c(-c2cc(Cl)c(Cl)c(Cl)c2Cl)cc1Cl |  |  | fresh water | 12 (unit not given), 20 °C, S30-1 sampler, 30 µm |  | log K(PDMS-water) | 6.67 ± 0.07
CC[C@H]1[C@@H](O)[C@@H]2[C@H](CC[C@]3(C)[C@@H]([C@H](C)CCNC(=O)NS(=O)(=O)c4ccc(C(C)(C)C)cc4)CC[C@@H]23)[C@@]2(C)CC[C@@H](O)C[C@@H]12 |  |  | human | concentration not given, study, with: quinidine |  | subjects with TEAEs | 58.3%
NC(=O)c1cccc(-c2cc(OC(=O)NC3CCCCC3)ccc2O)c1 |  |  | mouse | oral, 10 mg/kg |  | elimination half-life | 5.8 h
NCCOCC(=O)N1CCCC(C(=O)NCc2nc(-c3ccc(-c4ccc(F)cc4)cc3)cs2)C1 (stereo not drawn) |  |  | rat, bile duct-cannulated, anaesthetised, bile | intravenous, dose not given, 6 h | relative to: dose | biliary excretion, unchanged | 41%
Clc1ccc(Cl)c(-c2cccc(Cl)c2Cl)c1 |  |  | PDMS-water partitioning | PCB compilation | relative to: maximum over minimum K | literature range factor | 2
CCNC(=O)N1CCN(CCCC(c2ccc(F)cc2)c2ccc(F)cc2)CC1 | Plasmodium falciparum |  | 7G8 |  |  | IC50 | 1.26 µM
O=C(Nc1ccccc1)C1CCN(C(=O)Oc2cccnc2)CC1 |  | refers to: Somnolence | healthy female human | concentration not given, all doses pooled |  | adverse event incidence | 17%
Cc1ccc2cc(N3CCC4(O)C(=O)c5cc(C)c(C)cc5N=C34)ccc2n1 (stereo not drawn) |  | rotarod | mice | 10 mg/kg |  | motor learning and memory | no effect
COc1ccnc(C(=O)N[C@H]2COC(=O)[C@H](Cc3ccccc3)[C@@H](OC(=O)C(C)C)[C@H](C)OC2=O)c1OCOC(=O)C(C)C |  |  | Swiss Lake sand sediment, aerobic dark | 20 °C |  | DT50 water | 0.56 days
Clc1cc(Cl)c(-c2c(Cl)cc(Cl)cc2Cl)c(Cl)c1 |  |  | fresh water | 20 °C, S100 sampler, 100 µm |  | log K(PDMS-water) | 6.56 ± 0.06

Compound | target or system | test | system | conditions | scale | quantity | result
NC(=O)[C@H]1CCN(c2ncnc(N)c2F)C[C@@H]1N1CCC[C@@H](Nc2cc(Cl)cc(C(F)(F)F)c2)C1=O |  |  | B-cell malignancy patients | oral, 246 mg twice daily, dose |  | grade ≥3 lymphopenia | 0%
CC(C)[C@H](O)C(=O)N[C@H]1Cc2ccc3c(c2)[C@]2(C4=C(c5nc(CO)co5)N=C(O4)[C@H](C(C)(C)C)NC1=O)c1cc(F)ccc1N[C@@H]2O3 |  |  | NSG mice, heart | intravenous, 10 mg/kg, single dose at MTD, with: paclitaxel 40 mg/kg |  | terminal half-life | 0.8 h
CCCCCCC[N+](CC)(CC)CCCCc1ccc(Cl)cc1 | BCHE | inhibitor |  |  |  | IC50 | 7.69 µM
C[C@@H](NC(=O)N1C(=O)[C@H](Cc2ccnc(N)c2)[C@H]1C(=O)O)C1CCCCC1 |  |  | healthy Chinese adults | continuous intravenous infusion, 1.0 mg/kg/h, 5.0 days |  | decreased WBC | 0%
Cc1ccc2c(c1)CC[C@@](CCN(C)CCCc1nc3ccccc3[nH]1)(OC(=O)C1CC1)[C@H]2C(C)C | Plasmodium falciparum |  | GB4 |  |  | IC50 | 1 µM
C=C(CN(C(=O)c1c(C(F)F)nn(C)c1F)C1CC1)c1ccc(Cl)cc1Cl |  | static acute toxicity test | zebrafish (Brachydanio rerio) | 1.00 mg a.i./L, 6 h |  | mortality | 10%
C[C@]1(CO)Cc2ncn(-c3ccc(C#N)c(Cl)c3)c2C(=O)O1 |  |  | human, plasma | 10 mg single dose, geometric mean |  | AUC(0-inf) | 2.53 µM·h
COc1cc2c(Nc3ccc(Cl)c(Cl)c3F)ncnc2cc1OC[C@@H]1C[C@@H]2CN(C)C[C@@H]2C1 |  |  | mouse | daily dosing |  | MTD | 60 mg/kg
Clc1ccc(Cl)c(-c2cc(Cl)ccc2Cl)c1 |  |  | Sprague Dawley rat | intraperitoneal, 1 mg/kg, 3 weeks |  | body weight | 176 g
O[C@H]1CCCN[C@@H]1CCCn1cnc2c(Cl)c(Cl)ccc21 |  |  | healthy humans, plasma | oral, 150 mg, with: pirfenidone 600 mg |  | CL/F at steady state | 2270 mL/min
Clc1cc(Cl)c(-c2cc(Cl)ccc2Cl)c(Cl)c1 |  |  | fresh water | 20 °C, SSP sampler, 100 µm |  | log K(PDMS-water) | 5.98 ± 0.03
CC[C@H](C)[C@H](NC(=O)[C@H](Cc1ccccc1)NC(=O)[C@H](CCC(=O)O)NC(=O)[C@H](CCCNC(=N)N)NC(=O)[C@H](C)NC(=O)[C@H](C)NC(=O)[C@H](CCC(N)=O)NC(=O)[C@H](CCC(=O)O)NC(=O)[C@H](CCC(=O)O)NC(=O)[C@H](CC(C)C)NC(=O)[C@H](Cc1ccc(O)cc1)NC(=O)[C@H](CO)NC(=O)[C@H](CO)NC(=O)[C@@H](NC(=O)[C@H](CC(=O)O)NC(=O)[C@H](CO)NC(=O)[C@@H](NC(=O)[C@H](Cc1ccccc1)NC(=O)[C@@H](NC(=O)CNC(=O)[C@H](CCC(=O)O)NC(=O)[C@H](C)NC(=O)CCc1cnc[nH]1)[C@@H](C)O)[C@@H](C)O)C(C)C)C(=O)N[C@@H](C)C(=O)N[C@@H](Cc1c[nH]c2ccccc12)C(=O)N[C@@H](CC(C)C)C(=O)N[C@H](C(=O)N[C@@H](CCCNC(=N)N)C(=O)NCC(=O)N[C@@H](CCCNC(=N)N)C(=O)N[C@@H](CCCCNC(=O)COCCOCCNC(=O)COCCOCCNC(=O)CC[C@H](NC(=O)CCCCCCCCCCCCCCCCC(=O)O)C(=O)O)C(=O)NCC(=O)NCC(=O)N[C@@H](CO)C(=O)N[C@@H](CCCCNC(=O)[C@H](CCCCNC(=O)[C@H](CCCCNc1c(NCCCCCN(O)C(=O)CCC(=O)NCCCCCN(O)C(=O)CCC(=O)NCCCCCN(O)C(C)=O)c(=O)c1=O)Nc1c(NCCCCCN(O)C(=O)CCC(=O)NCCCCCN(O)C(=O)CCC(=O)NCCCCCN(O)C(C)=O)c(=O)c1=O)NC(=O)[C@H](CCCCNc1c(NCCCCCN(O)C(=O)CCC(=O)NCCCCCN(O)C(=O)CCC(=O)NCCCCCN(O)C(C)=O)c(=O)c1=O)Nc1c(NCCCCCN(O)C(=O)CCC(=O)NCCCCCN(O)C(=O)CCC(=O)NCCCCCN(O)C(C)=O)c(=O)c1=O)C(=O)O)C(C)C [zirconium-89 labelled] |  | ex vivo gamma counting | male Sprague-Dawley rat, stomach-duodenum | intravenous, 1 nmol, 24 h |  | tissue uptake | 0.595 %ID/g
COc1cc(N)c(Cl)cc1C(=O)NC[C@@H]1CCN2CCC[C@@H]12 | BCHE | inhibitor |  |  |  | IC50 | 7 ± 0.26 µM
C[C@]1(O)C[C@@](N)(c2ccc(-c3nc4n(c3-c3ccccc3)COc3ccncc3-4)cc2)C1 |  |  | human, advanced or metastatic solid tumours | 16 mg once daily, dose-ranging cohort |  | patients with any TEAE | 100%
CCC[C@@](N)(CO)CCc1ccc(OCCCCCC(C)C)cc1 |  |  | male hound dog, plasma | oral, 20 mg/kg, capsule, fasted, geometric mean |  | AUC(0-inf) | 20.7 µM·h
Cc1c(COC(=O)[C@@H]2[C@H](/C=C(\Cl)C(F)(F)F)C2(C)C)cccc1-c1ccccc1 (racemic) |  | refers to: CYP2C9 | human, age 1 year, recombinant human CYP2C9 | 0.1 µM |  | enzyme contribution to clearance | 22.1%
CC(C)[C@@H]1CC[C@@H](C)C[C@@H]1O |  | acute oral toxicity OECD | Swiss albino mice, serum | oral, 1000 mg/kg |  | creatinine | 0.98 ± 0.05 mg/dL
CC(C)C[C@@H]1NC(=O)CNC(=O)[C@H](CC(N)=O)NC(=O)[C@H](CCCNC(=N)N)NC(=O)[C@H]([C@@H](C)O)NC(=O)[C@@H]2CSSC[C@@H]3NC(=O)[C@H]([C@@H](C)O)NC(=O)[C@H](CCCCN)NC(=O)CNC(=O)[C@H](C(C)C)NC(=O)[C@@H]4CSSC[C@H](NC(=O)[C@H]([C@@H](C)O)NC(=O)[C@H](CSSC[C@H](NC(=O)[C@H](C(C)C)NC(=O)[C@@H]5CCCN5C1=O)C(=O)NCC(=O)N[C@@H](CCC(=O)O)C(=O)N[C@@H]([C@@H](C)O)C(=O)N4)NC(=O)CNC(=O)[C@@H]1CCCN1C(=O)[C@H]([C@@H](C)O)NC(=O)[C@H](CC(N)=O)NC3=O)C(=O)N[C@@H](CO)C(=O)N[C@@H](Cc1c[nH]c3ccccc13)C(=O)N1CCC[C@H]1C(=O)N[C@@H](C(C)C)C(=O)N2 |  | HPLC | ammonium bicarbonate | 180 µM, 14 days, pH 9.0, 25 °C, deamidation stability |  | remaining peptide | 90 ± 0.5%

Excerpt of the above:
Compound | target or system | test | system | conditions | scale | quantity | result
Cc1c(COC(=O)[C@@H]2[C@H](/C=C(\Cl)C(F)(F)F)C2(C)C)cccc1-c1ccccc1 (racemic) |  | refers to: CYP2C9 | human, age 1 year, recombinant human CYP2C9 | 0.1 µM |  | enzyme contribution to clearance | 22.1%
CC(C)[C@@H]1CC[C@@H](C)C[C@@H]1O |  | acute oral toxicity OECD | Swiss albino mice, serum | oral, 1000 mg/kg |  | creatinine | 0.98 ± 0.05 mg/dL
C[C@]1(CO)Cc2ncn(-c3ccc(C#N)c(Cl)c3)c2C(=O)O1 |  |  | human, plasma | 10 mg single dose, geometric mean |  | AUC(0-inf) | 2.53 µM·h
